Results gathered from unrelated publications.
Each line is one published result; not all experiments were run side by side. Several values in a cell are separate wells, animals, samples, runs or records. Numbers after ± are the reported error.
cyp121: Mycocyclosin synthase (cyp121, Mycobacterium tuberculosis, UniProt P9WPP7)
Chain of UniProt P9WPP7 (whole entry, looked up): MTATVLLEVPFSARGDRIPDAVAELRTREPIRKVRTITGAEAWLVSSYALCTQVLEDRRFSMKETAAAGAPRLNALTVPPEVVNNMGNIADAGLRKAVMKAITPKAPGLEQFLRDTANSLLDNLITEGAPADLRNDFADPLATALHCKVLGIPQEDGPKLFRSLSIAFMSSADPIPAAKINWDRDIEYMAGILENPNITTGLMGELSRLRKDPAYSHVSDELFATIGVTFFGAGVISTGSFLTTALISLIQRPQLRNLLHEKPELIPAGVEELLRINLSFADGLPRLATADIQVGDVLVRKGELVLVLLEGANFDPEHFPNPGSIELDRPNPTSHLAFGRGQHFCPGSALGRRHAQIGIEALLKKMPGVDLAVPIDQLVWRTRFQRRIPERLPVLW
Secreted effector protein N-terminal domain: Secreted effector protein, N-terminal domain (Yersinia pestis, UniProt O68720)
Chain of UniProt P0C2E9 (whole entry, looked up): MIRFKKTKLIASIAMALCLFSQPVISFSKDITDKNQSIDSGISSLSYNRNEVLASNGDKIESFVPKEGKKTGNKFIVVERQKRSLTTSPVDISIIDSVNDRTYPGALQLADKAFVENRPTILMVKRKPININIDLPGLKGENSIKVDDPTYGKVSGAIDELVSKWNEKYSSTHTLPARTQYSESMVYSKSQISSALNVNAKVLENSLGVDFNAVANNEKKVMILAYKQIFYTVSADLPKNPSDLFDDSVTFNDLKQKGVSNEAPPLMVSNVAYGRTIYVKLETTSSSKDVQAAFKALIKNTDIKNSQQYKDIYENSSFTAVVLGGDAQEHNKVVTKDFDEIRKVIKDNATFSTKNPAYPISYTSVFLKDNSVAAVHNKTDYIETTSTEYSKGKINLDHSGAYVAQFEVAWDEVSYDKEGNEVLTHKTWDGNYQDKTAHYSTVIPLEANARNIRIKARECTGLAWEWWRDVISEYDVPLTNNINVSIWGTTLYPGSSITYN
Chain of UniProt P41145 (whole entry, looked up): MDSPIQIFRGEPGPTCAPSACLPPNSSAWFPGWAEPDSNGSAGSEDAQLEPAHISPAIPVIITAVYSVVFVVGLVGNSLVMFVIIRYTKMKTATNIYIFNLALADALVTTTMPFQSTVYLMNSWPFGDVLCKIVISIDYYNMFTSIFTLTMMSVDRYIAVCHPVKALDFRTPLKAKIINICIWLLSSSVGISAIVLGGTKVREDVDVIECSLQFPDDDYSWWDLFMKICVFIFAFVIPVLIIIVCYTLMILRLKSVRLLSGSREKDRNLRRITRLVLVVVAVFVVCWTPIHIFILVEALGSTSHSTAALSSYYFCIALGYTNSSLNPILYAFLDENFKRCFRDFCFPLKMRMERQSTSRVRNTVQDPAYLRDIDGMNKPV
Chain of UniProt Q0P543 (whole entry, looked up): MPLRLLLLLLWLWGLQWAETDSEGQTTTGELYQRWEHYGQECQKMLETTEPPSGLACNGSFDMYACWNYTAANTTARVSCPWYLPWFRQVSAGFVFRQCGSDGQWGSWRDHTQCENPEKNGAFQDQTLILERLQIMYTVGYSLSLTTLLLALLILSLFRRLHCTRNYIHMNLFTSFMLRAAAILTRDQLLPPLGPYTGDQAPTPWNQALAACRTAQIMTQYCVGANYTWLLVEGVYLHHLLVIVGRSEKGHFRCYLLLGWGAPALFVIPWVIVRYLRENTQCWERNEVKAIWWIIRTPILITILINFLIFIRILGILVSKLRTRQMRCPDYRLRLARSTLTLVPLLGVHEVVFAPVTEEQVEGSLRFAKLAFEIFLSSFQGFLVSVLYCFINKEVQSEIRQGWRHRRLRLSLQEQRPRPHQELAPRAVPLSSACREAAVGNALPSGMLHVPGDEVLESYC
Chain of UniProt P41146 (whole entry, looked up): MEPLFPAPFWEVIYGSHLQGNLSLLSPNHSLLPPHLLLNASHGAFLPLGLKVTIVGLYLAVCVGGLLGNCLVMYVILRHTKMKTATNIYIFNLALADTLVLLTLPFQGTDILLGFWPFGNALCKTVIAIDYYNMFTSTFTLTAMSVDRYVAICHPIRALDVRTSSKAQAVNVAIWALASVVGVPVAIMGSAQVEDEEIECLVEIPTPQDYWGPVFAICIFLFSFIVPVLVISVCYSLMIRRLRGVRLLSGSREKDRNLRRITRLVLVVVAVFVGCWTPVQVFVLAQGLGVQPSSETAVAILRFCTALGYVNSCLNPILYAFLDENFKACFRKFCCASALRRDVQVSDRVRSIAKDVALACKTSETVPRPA
Chain of UniProt Q05323 (whole entry, looked up): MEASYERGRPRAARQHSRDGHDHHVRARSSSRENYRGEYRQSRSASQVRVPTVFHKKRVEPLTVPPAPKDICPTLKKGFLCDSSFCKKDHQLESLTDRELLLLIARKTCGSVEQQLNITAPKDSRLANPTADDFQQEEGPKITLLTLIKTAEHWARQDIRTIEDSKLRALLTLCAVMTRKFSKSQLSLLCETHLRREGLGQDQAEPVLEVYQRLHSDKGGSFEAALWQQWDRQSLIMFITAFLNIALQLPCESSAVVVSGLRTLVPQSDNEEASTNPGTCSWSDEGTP

With Fc1ccc(-c2ccc(Cn3ccnc3)c(F)c2)c(F)c1 the Kd was 12.6 ± 2 µM (cyp121; binding).
CC(=O)NC1C(OC2C(O)C(CO)OC(O)C2OC2OC(C)C(O)C(O)C2O)OC(CO)C(O)C1O (stereo not shown) has a Kd of 5.1 µM and 5.11 µM (pfo (Clostridium perfringens, UniProt P0C2E9); binding).
CC(C)C[C@H](NC(=O)[C@H](CO[C@@H]1O[C@H](CO)[C@@H](O[C@@H]2O[C@H](CO)[C@H](O)[C@H](O)[C@H]2O)[C@H](O)[C@H]1O)NC(=O)[C@H](CCCCN)NC(=O)[C@H](CC(C)C)NC(=O)[C@H](C)NC(=O)[C@H](CCCCN)NC(=O)[C@H](CCC(=O)O)NC(=O)C(C)(C)NC(=O)[C@H](CC(C)C)NC(=O)[C@H](CC(N)=O)NC(=O)[C@@H]1CCCN1C(=O)[C@H](CC(C)C)NC(=O)[C@H](Cc1ccccc1)NC(=O)CNC(=O)[C@H](NC(=O)[C@@H](N)Cc1ccc(O)cc1)[C@H](C)O)C(N)=O gave a Ki of 0.017 µM (Kappa-type opioid receptor (OPRK1, Homo sapiens, UniProt P41145); ligand displacement, radioligand; pH 7.5, cell membranes).
The Kd of CC(C)=CCCC(C)(OC1OC(COC2OC(CO)C(O)C2OC2OCC(O)C(O)C2O)C(O)C(O)C1O)C1CCC2(C)C1C(O)CC1C3(C)CCC(OC4OC(CO)C(O)C(O)C4OC4OC(CO)C(O)C(O)C4O)C(C)(C)C3CCC12C (stereo not shown) is reported as 55.6 µM (Spike glycoprotein, S1 subunit (Severe acute respiratory syndrome coronavirus, UniProt P59594); binding).
With COc1ccc(-c2ccc3c(c2)CCC3n2ccnc2)cc1 (stereo not shown) the Kd was 4.7 ± 0.8 µM (cyp121; binding).
Cc1ccc(N2CC3CC(C2)N3)cc1C(=O)NC1(c2ccc3c4c(cccc24)C(=O)N3C)CC1 gave a Kd of 0.00583 µM (Replicase polyprotein 1a, papain-like protease (Severe acute respiratory syndrome coronavirus 2, UniProt P0DTC1); binding, ITC).
For CCCCCCCCCCCCCCCC(=O)N[C@@H](CCC(=O)NCCOCCOCCC(=O)NCCOCCOCCC(=O)NCCCC[C@H](NC(=O)[C@H](CC(=O)O)NC(=O)[C@H](CC(C)C)NC(=O)[C@H](Cc1ccc(O)cc1)NC(=O)[C@H](CCCCN)NC(=O)[C@H](CO)NC(=O)[C@H](Cc1ccc(O)cc1)NC(=O)[C@H](CC(=O)O)NC(=O)[C@H](CO)NC(=O)[C@@H](NC(=O)[C@H](Cc1ccccc1)NC(=O)[C@@H](NC(=O)CNC(=O)[C@H](CCC(N)=O)NC(=O)[C@@H](CO)NC(=O)[C@@H](N)Cc1c[nH]cn1)[C@@H](C)O)[C@@H](C)O)C(=O)N[C@@H](CCCNC(=N)N)C(=O)N[C@@H](CCCNC(=N)N)C(=O)N[C@@H](C)C(=O)N[C@@H](CCC(N)=O)C(=O)N[C@@H](CC(=O)O)C(=O)N[C@@H](Cc1ccccc1)C(=O)N[C@H](C(=O)N[C@@H](CCC(N)=O)C(=O)N[C@@H](Cc1c[nH]c2ccccc12)C(=O)N[C@@H](CC(C)C)C(=O)N[C@@H](CC(C)C)C(=O)N[C@@H](CC(N)=O)C(=O)N[C@H](C(=O)NCC(=O)NCC(=O)N1CCC[C@H]1C(=O)N[C@@H](CO)C(=O)N[C@@H](CO)C(=O)NCC(=O)N[C@@H](C)C(=O)N1CCC[C@H]1C(=O)N1CCC[C@H]1C(=O)N1CCC[C@H]1C(=O)N[C@@H](CO)C(N)=O)[C@@H](C)O)C(C)C)C(=O)O, the urea was 6.54 ± 1.17 mmol/L (rhesus monkey, female; subcutaneous, 60 µg/kg once daily, 28 days).
For CC[C@H](C)[C@H](NC(=O)[C@H](CCCCN)NC(=O)[C@H](CCCCN)NC(=O)[C@H](CC(C)C)NC(=O)[C@H](Cc1c[nH]c2ccccc12)NC(=O)CN)C(=O)NCC(=O)N[C@@H](CCCCN)C(=O)N[C@@H](CCCCN)C(=O)N[C@H](C(=O)N[C@@H](CCC(=O)O)C(=O)N[C@@H](CCCNC(=N)N)C(=O)N[C@H](C(=O)NCC(=O)N[C@@H](CCC(N)=O)C(=O)N[C@@H](Cc1c[nH]cn1)C(=O)N[C@H](C(=O)N[C@@H](CCCNC(=N)N)C(=O)N[C@@H](CC(=O)O)C(=O)N[C@@H](C)C(=O)N[C@H](C(=O)N[C@H](C(=O)N[C@@H](CCC(N)=O)C(=O)N[C@H](C(=O)N[C@H](C(=O)NCC(=O)N[C@H](C(=O)N[C@@H](C)C(=O)N[C@@H](CCC(N)=O)C(=O)N[C@@H](CCC(N)=O)C(=O)N[C@@H](C)C(=O)N[C@@H](C)C(=O)N[C@@H](CC(N)=O)C(=O)N[C@H](C(=O)N[C@@H](C)C(=O)N[C@@H](C)C(=O)N[C@H](C(=O)N[C@@H](CC(C)C)C(=O)N[C@@H](CCCCN)C(N)=O)[C@@H](C)O)C(C)C)C(C)C)[C@@H](C)CC)[C@@H](C)O)[C@@H](C)CC)[C@@H](C)O)[C@@H](C)O)C(C)C)[C@@H](C)CC, the MIC was greater than 1020 µg/mL (Staphylococcus aureus; broth microdilution; ATCC 25923, CAMHB).
With Fc1ccc(F)c(-c2ccc(Cn3ccnc3)c(F)c2)c1 the Kd was 9.2 ± 2 µM (cyp121; binding).
COCCOc1cc(OCCOC)cc(C(=O)NCCOC(=O)[C@@H]2CCCCN2S(=O)(=O)Cc2ccccc2)c1 gave a Kd of 8.9 ± 0.2 µM (Peptidyl-prolyl cis-trans isomerase (Burkholderia pseudomallei, UniProt Q63J95)).
With CC[C@H](C)[C@H](NC(=O)[C@H](CCCN)NC(=O)[C@H](CC(=O)O)NC(=O)[C@H](CC(C)C)NC(=O)C(C)(CC(C)C)NC(=O)[C@@H](NC(=O)[C@H](CO)NC(=O)[C@H](Cc1ccc(O)cc1)NC(=O)[C@H](CC(=O)O)NC(=O)[C@H](CO)NC(=O)[C@@H](NC(=O)[C@H](Cc1ccccc1)NC(=O)[C@@H](NC(=O)CNC(=O)[C@H](CCC(=O)O)NC(=O)C(C)(C)NC(=O)[C@@H](N)Cc1ccc(O)cc1)[C@@H](C)O)[C@@H](C)CC)[C@@H](C)CC)C(=O)N[C@@H](Cc1c[nH]cn1)C(=O)N[C@@H](CCC(N)=O)C(=O)NC(C)(C)C(=O)N[C@@H](CC(=O)O)C(=O)N[C@@H](Cc1ccccc1)C(=O)N[C@H](C(=O)N[C@@H](CCC(=O)O)C(=O)N[C@@H](Cc1ccc(O)cc1)C(=O)N[C@@H](CCCCNC(=O)COCCOCCNC(=O)COCCOCCNC(=O)CC[C@H](NC(=O)CCCCCCCCCCCCCCCCCCC(=O)O)C(=O)O)C(=O)N[C@@H](CC(C)C)C(=O)N[C@@H](CCC(=O)O)C(=O)NCC(=O)NCC(=O)N1CCC[C@H]1C(=O)N[C@@H](CO)C(=O)N[C@@H](CO)C(=O)NCC(=O)N[C@@H](C)C(=O)N1CCC[C@H]1C(=O)N1CCC[C@H]1C(=O)N1CCC[C@H]1C(=O)N[C@@H](CO)C(N)=O)C(C)C (stereo partly shown) the relative potency was roughly 30 fold (Gastric inhibitory polypeptide receptor (Mus musculus, UniProt Q0P543); cAMP accumulation, agonist; HEK293; reference: human GIP, fold less potent).
CC[C@H](C)[C@H](NC(=O)[C@H](CCCCN)NC(=O)[C@H](Cc1c[nH]c2ccccc12)NC(=O)[C@H](CC(C)C)NC(=O)[C@H](CC(C)C)NC(=O)[C@H](CC(=O)O)NC(=O)[C@@H](NC(=O)[C@H](CCCNC(=N)N)NC(=O)[C@H](CCC(=O)O)NC(=O)[C@H](CCCNC(=N)N)NC(=O)[C@H](CC(=O)O)NC(=O)[C@H](CC(C)C)NC(C)=O)[C@@H](C)CC)C(=O)N[C@@H](C)C(=O)N[C@@H](CCCNC(=N)N)C(=O)N[C@@H](C)C(=O)NCC(=O)N[C@@H](C)C(=O)N[C@@H](CCCNC(=N)N)C(=O)N[C@@H](CO)C(=O)N[C@@H](C)C(=O)N[C@H](C(=O)NCC(N)=O)C(C)C gave a Kd of 2200 ± 200 µM (membrane partitioning, far-UV CD; POPC:POPG:cholesterol SUV; pH 7.5, 25 °C).
With CC(=O)NCCCC[C@H](NC(=O)[C@@H](NC(=O)[C@H](CC(C)C)NC(=O)[C@H](CO)NC(C)=O)C(C)C)C(=O)N1CCC[C@H]1C(=O)N[C@@H](CO)C(N)=O the Kd was greater than 1000 µM (Bromodomain-containing protein 4, BD1 (BRD4, Homo sapiens, UniProt O60885); binding, NMR; pH 6.8).
With COc1ccc(/C=N/NC(=O)C(C)(C)Oc2ccc(Cl)cc2)c(C(=O)O)c1OC the Kd was 13.8 µM (uncharacterized protein (Candidatus Liberibacter solanacearum, UniProt A0A094YYW1)).
CC[C@H](C)[C@H](NC(=O)[C@H](CC(C)C)NC(=O)[C@@H](N)Cc1ccc(O)cc1)C(=O)N[C@@H](CSCC(N)=O)C(=O)N[C@@H](Cc1ccc(O)cc1)C(=O)N[C@H](C(=O)N[C@@H](CC(=O)O)C(=O)N[C@@H](CSCC(N)=O)C(=O)NCC(=O)N[C@@H](Cc1ccccc1)C(=O)N[C@@H](CC(C)C)C(=O)N[C@@H](CCCCN)C(=O)N[C@@H](CCCCN)C(=O)N[C@@H](CCCCN)C(=O)N[C@@H](CCCCNC(=O)CCCC[C@@H]1SC[C@@H]2NC(=O)N[C@@H]21)C(N)=O)[C@@H](C)O gave a Kd of greater than 100 µM (Gag polyprotein, capsid C-terminal domain (gag, UniProt P12493); binding, biolayer interferometry; PBS; pH 7.4, 30 °C, biotinylated peptide immobilised, added: C-CA 5 to 100 µM).
With CC(=O)N[C@@H](Cc1ccc(OP(=O)(O)O)cc1)C(=O)N[C@H](C(=O)N[C@@H](CC(=O)O)C(=O)N1CCC[C@H]1C(N)=O)C1CCCC1 the Kd was 1.4 µM (Secreted effector protein N-terminal domain; biochemical).
For Cc1cc(O)cc(C)c1C[C@H](N)C(=O)NCC(=O)NCC(=O)N[C@@H](Cc1ccccc1)C(=O)N[C@H](C(=O)NCC(=O)N[C@@H](C)C(=O)N[C@@H](CCCNC(=N)N)C(=O)N[C@@H](CCCCN)C(=O)N[C@@H](CO)C(=O)N[C@@H](C)C(=O)N[C@@H](CCCNC(=N)N)C(=O)N[C@@H](CCCCN)C(N)=O)[C@@H](C)O, the EC50 was 0.000661 µM (Nociceptin receptor (OPRL1, Homo sapiens, UniProt P41146); calcium mobilisation, agonist; CHO with Gαqi5; NOP receptor).
For CC(=O)N[C@@H](Cc1ccccc1)C(=O)N[C@@H](Cc1ccc(OP(=O)(O)O)cc1)C(=O)N[C@H](C(=O)N[C@@H](CC(=O)O)C(=O)N1CCC[C@H]1C(N)=O)C1CCCC1, the Kd was 0.31 µM (Secreted effector protein N-terminal domain; biochemical).
For O=[N+]([O-])c1cc(C(F)(F)F)cc([N+](=O)[O-])c1NNC(=S)Nc1ccc(F)cc1, the Kd was 0.88 µM (Transcriptional activator VP30 (VP30, Zaire ebolavirus, UniProt Q05323); Ebola virus).

For quick reference, copied from above:
For O=[N+]([O-])c1cc(C(F)(F)F)cc([N+](=O)[O-])c1NNC(=S)Nc1ccc(F)cc1, the Kd was 0.88 µM (Transcriptional activator VP30 (VP30, Zaire ebolavirus, UniProt Q05323); Ebola virus).
CC(C)C[C@H](NC(=O)[C@H](CO[C@@H]1O[C@H](CO)[C@@H](O[C@@H]2O[C@H](CO)[C@H](O)[C@H](O)[C@H]2O)[C@H](O)[C@H]1O)NC(=O)[C@H](CCCCN)NC(=O)[C@H](CC(C)C)NC(=O)[C@H](C)NC(=O)[C@H](CCCCN)NC(=O)[C@H](CCC(=O)O)NC(=O)C(C)(C)NC(=O)[C@H](CC(C)C)NC(=O)[C@H](CC(N)=O)NC(=O)[C@@H]1CCCN1C(=O)[C@H](CC(C)C)NC(=O)[C@H](Cc1ccccc1)NC(=O)CNC(=O)[C@H](NC(=O)[C@@H](N)Cc1ccc(O)cc1)[C@H](C)O)C(N)=O gave a Ki of 0.017 µM (Kappa-type opioid receptor (OPRK1, Homo sapiens, UniProt P41145); ligand displacement, radioligand; pH 7.5, cell membranes).
For CC[C@H](C)[C@H](NC(=O)[C@H](CCCCN)NC(=O)[C@H](CCCCN)NC(=O)[C@H](CC(C)C)NC(=O)[C@H](Cc1c[nH]c2ccccc12)NC(=O)CN)C(=O)NCC(=O)N[C@@H](CCCCN)C(=O)N[C@@H](CCCCN)C(=O)N[C@H](C(=O)N[C@@H](CCC(=O)O)C(=O)N[C@@H](CCCNC(=N)N)C(=O)N[C@H](C(=O)NCC(=O)N[C@@H](CCC(N)=O)C(=O)N[C@@H](Cc1c[nH]cn1)C(=O)N[C@H](C(=O)N[C@@H](CCCNC(=N)N)C(=O)N[C@@H](CC(=O)O)C(=O)N[C@@H](C)C(=O)N[C@H](C(=O)N[C@H](C(=O)N[C@@H](CCC(N)=O)C(=O)N[C@H](C(=O)N[C@H](C(=O)NCC(=O)N[C@H](C(=O)N[C@@H](C)C(=O)N[C@@H](CCC(N)=O)C(=O)N[C@@H](CCC(N)=O)C(=O)N[C@@H](C)C(=O)N[C@@H](C)C(=O)N[C@@H](CC(N)=O)C(=O)N[C@H](C(=O)N[C@@H](C)C(=O)N[C@@H](C)C(=O)N[C@H](C(=O)N[C@@H](CC(C)C)C(=O)N[C@@H](CCCCN)C(N)=O)[C@@H](C)O)C(C)C)C(C)C)[C@@H](C)CC)[C@@H](C)O)[C@@H](C)CC)[C@@H](C)O)[C@@H](C)O)C(C)C)[C@@H](C)CC, the MIC was greater than 1020 µg/mL (Staphylococcus aureus; broth microdilution; ATCC 25923, CAMHB).
